Results from different studies.
Compare with care: the assays were run in different laboratories. Several values in a cell are separate wells, animals, samples, runs or records. pEC50: −log10 of the molar value. ≈ marks a conversion by molar mass, not a printed value.
ESR2: Estrogen receptor beta (ESR2, Homo sapiens, UniProt Q92731)
Chain of UniProt Q92731 (whole entry, looked up): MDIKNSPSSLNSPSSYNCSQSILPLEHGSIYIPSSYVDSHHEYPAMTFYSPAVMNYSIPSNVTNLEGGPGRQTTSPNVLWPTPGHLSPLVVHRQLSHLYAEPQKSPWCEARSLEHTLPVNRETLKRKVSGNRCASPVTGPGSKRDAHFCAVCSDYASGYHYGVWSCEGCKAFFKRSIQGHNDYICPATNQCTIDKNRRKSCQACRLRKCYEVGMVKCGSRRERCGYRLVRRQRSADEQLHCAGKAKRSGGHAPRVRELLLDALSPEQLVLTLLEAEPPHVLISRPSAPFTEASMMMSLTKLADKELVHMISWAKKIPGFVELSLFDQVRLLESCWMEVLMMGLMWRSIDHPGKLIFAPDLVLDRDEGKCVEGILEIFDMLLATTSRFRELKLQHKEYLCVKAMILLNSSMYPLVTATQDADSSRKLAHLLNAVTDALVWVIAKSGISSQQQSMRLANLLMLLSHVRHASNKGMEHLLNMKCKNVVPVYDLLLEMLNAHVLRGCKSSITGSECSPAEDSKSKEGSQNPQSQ

For `N#Cc1ccn2c(-c3ccncc3)c(-c3ccc(F)cc3)nc2c1`, “log2 fold change” read -0.502 (Pom1 kinase Candida albicans; MIB/MS competition binding; Candida albicans cell lysate; 10 µM; baseline: DMSO, lower = stronger binding).
`COC(c1ccccc1)(c1ccccc1)[C@H](Oc1nc(C)cc(C)n1)C(=O)O` has an inhibition of -197% (Nedd8-cullin1 interaction; neddylation, AlphaScreen; 100 µM).
The killing of `CC1=C(Cc2cn(CCOS(=O)(=O)c3ccc(C)cc3)nn2)C(=O)c2ccccc2C1=O` is reported as 42.7% (Schistosoma mansoni; adult worms; 25 µM, 48 h).
`COc1cc(-c2coc3cc(O)c(OC)c(O)c3c2=O)cc(O)c1OC` gave a pEC50 of 5.67 (ESR2; array formation, agonist; GFP-ERβ PRL-HeLa; 1 h).
The inhibition of `O=C([O-])[O-].O=C([O-])[O-].O=C([O-])[O-].[La+3].[La+3]` is reported as 30.1% (Nedd8-cullin1 interaction; neddylation, AlphaScreen; 100 µM).
Under “log2 fold change”, `Oc1ccccc1-c1n[nH]cc1-c1ccnc2ccccc12` is recorded as -0.03 (SAT4 (Candida albicans); kinase binding, MIB/MS competition; Candida albicans lysate; 1 µM; baseline: DMSO).
The inhibition of `COC(=O)C1=C(C)NC(C)=C(C(=O)O[C@@H]2CCCN(Cc3ccccc3)C2)[C@@H]1c1cccc([N+](=O)[O-])c1.Cl` (racemic) is reported as 60.3% (Nedd8-cullin1 interaction; neddylation, AlphaScreen; 100 µM).
The sarcomere length of `O=C(O)CNC(=O)Cc1ccccc1` is reported as 1.72 µm (ventricular cardiomyocytes, C57BL/6 mouse; dose not given, 0.42 s).
`Cc1c(CN2CCN(C(=O)[C@H](C)O)CC2)sc2c(N3CCOCC3)nc(-c3cnc(N)nc3)nc12` gave an IC50 of 0.0124 µg/mL (≈ 0.0249 µM) (phospho-Akt; Akt phosphorylation, inhibitor; human patients with epithelioid sarcoma, plasma; PK-PD study).
`[Ca+2]` — result for “desensitization time constant”: 91.8 s and 177 s and 140 s and 139 s and 186 s and 116 s and 85 s (human TRPA1 W1103A; ion current, two-electrode voltage clamp; Xenopus oocytes; +80 mV, with: AITC, EGTA-AM 0.5 mM 20 min).
`CCCCC/C=C/C(=O)CCc1ccc(O)c(OC)c1` gave a pEC50 of 5.63 (ESR2; array formation, agonist; GFP-ERβ PRL-HeLa; 1 h).
For `C#Cc1cc(-c2cc(Nc3nc(N[C@@H](C)c4ccc(F)cn4)ncc3Cl)n[nH]2)ccc1C=O`, “number of kinase hits” read 59 (panel of 416 human kinases; kinase activity; 200 nM, hit threshold 20).
For `Cc1n[nH]c2ccc(-c3cc(OC[C@@H](N)Cc4ccccc4)cnc3-c3ccoc3)cc12`, “log2 fold change” read -0.345 (Pom1 kinase Candida albicans; MIB/MS competition binding; Candida albicans cell lysate; 1 µM; baseline: DMSO, lower = stronger binding).
Under “log2 fold change”, `c1coc(-c2n[nH]cc2-c2ccnc3ccccc23)c1` is recorded as 0.05 (SAT4 (Candida albicans); kinase binding, MIB/MS competition; Candida albicans lysate; 10 µM; baseline: DMSO).

A few entries again:
`COC(c1ccccc1)(c1ccccc1)[C@H](Oc1nc(C)cc(C)n1)C(=O)O` has an inhibition of -197% (Nedd8-cullin1 interaction; neddylation, AlphaScreen; 100 µM).
